Measured values from different studies.
Dipeptidyl peptidase 8: Dipeptidyl peptidase 8 (Homo sapiens, UniProt Q6V1X1)
UniProt Q6V1X1, sequence (whole entry, looked up): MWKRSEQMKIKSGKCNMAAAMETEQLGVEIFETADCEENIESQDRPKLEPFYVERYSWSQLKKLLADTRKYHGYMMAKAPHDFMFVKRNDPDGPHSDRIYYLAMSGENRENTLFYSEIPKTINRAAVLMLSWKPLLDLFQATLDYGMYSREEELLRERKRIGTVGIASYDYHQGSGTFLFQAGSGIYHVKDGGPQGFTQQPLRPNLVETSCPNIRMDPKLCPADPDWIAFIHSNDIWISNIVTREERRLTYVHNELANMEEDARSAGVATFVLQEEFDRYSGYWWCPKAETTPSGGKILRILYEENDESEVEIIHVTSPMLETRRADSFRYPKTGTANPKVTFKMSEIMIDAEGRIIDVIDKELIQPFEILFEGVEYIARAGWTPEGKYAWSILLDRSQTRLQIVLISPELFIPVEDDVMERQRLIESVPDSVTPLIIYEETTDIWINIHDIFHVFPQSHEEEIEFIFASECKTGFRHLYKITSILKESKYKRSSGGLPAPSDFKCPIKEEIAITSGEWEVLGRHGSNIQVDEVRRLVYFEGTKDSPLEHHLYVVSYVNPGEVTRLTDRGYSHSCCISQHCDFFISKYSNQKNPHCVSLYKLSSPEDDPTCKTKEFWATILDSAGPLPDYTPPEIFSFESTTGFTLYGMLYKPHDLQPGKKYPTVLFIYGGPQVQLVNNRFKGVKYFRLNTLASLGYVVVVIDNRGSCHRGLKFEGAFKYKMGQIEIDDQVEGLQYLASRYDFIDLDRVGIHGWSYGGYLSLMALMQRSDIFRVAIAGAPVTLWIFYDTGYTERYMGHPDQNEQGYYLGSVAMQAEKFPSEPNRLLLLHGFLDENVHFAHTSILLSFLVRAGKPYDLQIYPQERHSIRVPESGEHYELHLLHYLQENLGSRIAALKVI
CTSL: Procathepsin L (CTSL, Homo sapiens, UniProt P07711)
UniProt P07711, sequence (whole entry, looked up): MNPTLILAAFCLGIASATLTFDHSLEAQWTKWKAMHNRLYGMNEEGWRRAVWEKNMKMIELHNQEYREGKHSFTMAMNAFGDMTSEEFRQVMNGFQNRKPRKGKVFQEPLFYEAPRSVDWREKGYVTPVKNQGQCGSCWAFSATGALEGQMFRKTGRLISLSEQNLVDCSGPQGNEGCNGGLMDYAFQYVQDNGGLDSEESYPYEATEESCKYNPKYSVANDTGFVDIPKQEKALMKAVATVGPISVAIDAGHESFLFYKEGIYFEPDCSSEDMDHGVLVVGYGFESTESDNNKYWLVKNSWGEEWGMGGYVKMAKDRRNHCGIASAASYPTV
ERN2 RNase domain: Serine/threonine-protein kinase/endoribonuclease IRE2, RNase domain (ERN2, Homo sapiens, UniProt Q76MJ5)
UniProt Q76MJ5, sequence (whole entry, looked up): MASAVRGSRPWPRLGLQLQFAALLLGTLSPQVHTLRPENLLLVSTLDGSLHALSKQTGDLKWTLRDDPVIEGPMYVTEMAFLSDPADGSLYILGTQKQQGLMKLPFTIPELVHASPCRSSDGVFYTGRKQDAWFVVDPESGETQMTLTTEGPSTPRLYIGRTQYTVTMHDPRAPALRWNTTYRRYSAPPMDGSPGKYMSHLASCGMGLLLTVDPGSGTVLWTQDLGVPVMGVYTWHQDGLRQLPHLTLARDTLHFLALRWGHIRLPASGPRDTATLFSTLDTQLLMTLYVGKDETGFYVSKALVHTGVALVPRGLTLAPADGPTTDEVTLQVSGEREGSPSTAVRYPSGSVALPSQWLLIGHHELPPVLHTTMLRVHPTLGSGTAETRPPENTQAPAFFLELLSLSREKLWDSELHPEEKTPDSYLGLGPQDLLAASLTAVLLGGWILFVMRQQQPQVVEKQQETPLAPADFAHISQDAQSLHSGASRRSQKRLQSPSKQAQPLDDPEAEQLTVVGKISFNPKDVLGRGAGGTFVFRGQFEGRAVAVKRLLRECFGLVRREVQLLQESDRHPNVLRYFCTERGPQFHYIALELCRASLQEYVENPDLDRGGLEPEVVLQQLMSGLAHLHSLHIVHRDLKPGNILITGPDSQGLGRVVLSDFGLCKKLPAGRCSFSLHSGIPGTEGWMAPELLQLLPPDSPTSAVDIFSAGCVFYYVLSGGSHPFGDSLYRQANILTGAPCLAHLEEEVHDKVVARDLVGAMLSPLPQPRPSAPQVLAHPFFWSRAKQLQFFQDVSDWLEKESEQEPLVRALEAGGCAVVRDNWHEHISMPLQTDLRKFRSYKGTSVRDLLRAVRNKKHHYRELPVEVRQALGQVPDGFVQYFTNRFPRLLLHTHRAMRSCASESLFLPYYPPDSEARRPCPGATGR
PRSS1: Serine protease 1 (PRSS1, Bos taurus, UniProt P00760)
UniProt P00760, sequence (whole entry, looked up): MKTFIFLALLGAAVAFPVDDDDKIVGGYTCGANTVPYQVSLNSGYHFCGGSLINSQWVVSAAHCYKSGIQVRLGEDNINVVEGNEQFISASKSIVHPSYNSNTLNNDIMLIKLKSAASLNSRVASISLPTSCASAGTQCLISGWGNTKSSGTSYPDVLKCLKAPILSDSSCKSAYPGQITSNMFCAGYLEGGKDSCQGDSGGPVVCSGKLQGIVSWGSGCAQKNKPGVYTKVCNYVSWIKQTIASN
PTGS2: Prostaglandin G/H synthase 2 (PTGS2, Ovis aries, UniProt P79208)
UniProt P79208, sequence (whole entry, looked up): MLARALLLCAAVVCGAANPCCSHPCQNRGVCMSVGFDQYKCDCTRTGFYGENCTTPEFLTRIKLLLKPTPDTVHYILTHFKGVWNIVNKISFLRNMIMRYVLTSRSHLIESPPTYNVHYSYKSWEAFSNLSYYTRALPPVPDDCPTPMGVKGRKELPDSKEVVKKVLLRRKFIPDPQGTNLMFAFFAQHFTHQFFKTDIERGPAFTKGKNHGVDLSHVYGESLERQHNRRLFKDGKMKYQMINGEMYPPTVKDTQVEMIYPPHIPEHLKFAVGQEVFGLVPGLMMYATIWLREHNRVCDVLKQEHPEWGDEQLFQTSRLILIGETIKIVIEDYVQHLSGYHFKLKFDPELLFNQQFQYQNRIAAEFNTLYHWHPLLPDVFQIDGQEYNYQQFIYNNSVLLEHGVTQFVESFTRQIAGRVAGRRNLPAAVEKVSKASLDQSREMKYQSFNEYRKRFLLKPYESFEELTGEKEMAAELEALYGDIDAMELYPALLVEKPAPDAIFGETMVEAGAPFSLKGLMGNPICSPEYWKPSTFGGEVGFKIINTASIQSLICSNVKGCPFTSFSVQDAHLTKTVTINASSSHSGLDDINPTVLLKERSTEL
UniProt P19784, sequence (whole entry, looked up): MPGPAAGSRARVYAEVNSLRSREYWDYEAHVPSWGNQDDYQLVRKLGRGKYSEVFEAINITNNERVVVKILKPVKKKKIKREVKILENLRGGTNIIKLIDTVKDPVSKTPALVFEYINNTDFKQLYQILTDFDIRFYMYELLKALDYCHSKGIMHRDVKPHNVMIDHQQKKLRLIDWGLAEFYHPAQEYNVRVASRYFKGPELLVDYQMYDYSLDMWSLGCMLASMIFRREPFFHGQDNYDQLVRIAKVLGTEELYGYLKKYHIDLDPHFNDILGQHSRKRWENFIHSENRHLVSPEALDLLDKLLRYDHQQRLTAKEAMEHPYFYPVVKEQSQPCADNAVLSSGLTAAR
UniProt Q969S8, sequence (whole entry, looked up): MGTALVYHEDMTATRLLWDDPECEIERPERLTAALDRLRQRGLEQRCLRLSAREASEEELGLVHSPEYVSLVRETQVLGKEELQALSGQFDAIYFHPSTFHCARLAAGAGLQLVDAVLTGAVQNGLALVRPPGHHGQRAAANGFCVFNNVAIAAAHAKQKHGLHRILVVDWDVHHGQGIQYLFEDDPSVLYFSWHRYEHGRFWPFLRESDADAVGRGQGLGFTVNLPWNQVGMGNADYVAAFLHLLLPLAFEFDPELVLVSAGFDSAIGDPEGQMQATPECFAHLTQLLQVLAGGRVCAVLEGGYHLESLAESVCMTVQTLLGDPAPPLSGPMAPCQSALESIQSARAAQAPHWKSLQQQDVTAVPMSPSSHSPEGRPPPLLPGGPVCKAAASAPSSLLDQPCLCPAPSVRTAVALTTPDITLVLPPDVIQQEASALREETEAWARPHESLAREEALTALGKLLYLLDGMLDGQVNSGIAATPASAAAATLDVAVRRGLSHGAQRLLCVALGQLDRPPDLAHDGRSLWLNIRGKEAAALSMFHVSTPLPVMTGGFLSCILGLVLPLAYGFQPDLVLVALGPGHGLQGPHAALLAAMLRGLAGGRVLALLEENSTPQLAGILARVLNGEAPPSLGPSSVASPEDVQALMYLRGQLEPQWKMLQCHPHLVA
UniProt O75460, sequence (whole entry, looked up): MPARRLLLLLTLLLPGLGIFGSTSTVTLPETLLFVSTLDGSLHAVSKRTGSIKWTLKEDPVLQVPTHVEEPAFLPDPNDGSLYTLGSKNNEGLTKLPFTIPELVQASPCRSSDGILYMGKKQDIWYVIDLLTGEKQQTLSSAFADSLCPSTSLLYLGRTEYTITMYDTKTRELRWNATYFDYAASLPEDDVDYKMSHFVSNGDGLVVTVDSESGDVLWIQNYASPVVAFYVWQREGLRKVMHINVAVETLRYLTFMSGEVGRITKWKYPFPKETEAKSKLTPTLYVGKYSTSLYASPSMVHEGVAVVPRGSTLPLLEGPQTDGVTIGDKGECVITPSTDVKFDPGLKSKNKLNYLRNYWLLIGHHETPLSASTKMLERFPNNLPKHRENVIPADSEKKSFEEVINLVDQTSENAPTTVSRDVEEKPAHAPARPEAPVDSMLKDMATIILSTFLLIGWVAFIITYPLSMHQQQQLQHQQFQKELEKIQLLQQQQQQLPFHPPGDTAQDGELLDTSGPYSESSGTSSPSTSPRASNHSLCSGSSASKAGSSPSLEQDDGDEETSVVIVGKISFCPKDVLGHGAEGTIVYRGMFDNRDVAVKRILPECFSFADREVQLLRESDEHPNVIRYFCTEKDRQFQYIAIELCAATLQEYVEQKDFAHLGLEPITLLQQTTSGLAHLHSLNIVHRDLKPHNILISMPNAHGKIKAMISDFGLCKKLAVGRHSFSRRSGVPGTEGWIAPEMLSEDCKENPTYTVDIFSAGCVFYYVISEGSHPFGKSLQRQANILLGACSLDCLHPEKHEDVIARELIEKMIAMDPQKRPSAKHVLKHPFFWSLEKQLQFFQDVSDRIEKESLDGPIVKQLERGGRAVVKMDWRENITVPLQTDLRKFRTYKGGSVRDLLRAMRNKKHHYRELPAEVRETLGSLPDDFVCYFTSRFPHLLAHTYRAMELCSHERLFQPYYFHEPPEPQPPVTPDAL

`CCC1(CC)C(=O)N(c2cccc(CN3CCN(C)CC3)c2)C1=O` has a selectivity ratio of greater than 4 (Dipeptidyl peptidase 8; baseline: Ki DPP9 over Ki target).
`COC(=O)c1cc2cc3c(cc2oc1=O)N(CC(=O)NC(Cc1ccc(C)cc1)C(=O)NCC=CS(=O)(=O)c1ccccc1)CCC3` (stereo not drawn) has a selectivity ratio of 1.3 (CTSL; baseline: rhodesain over cathepsin L kinact/Ki).
`CCOc1ccc(C(C)=O)cc1NC(=O)c1cc(NC(C)=O)cc(NC(C)=O)c1` gave a selectivity ratio of greater than 250 fold (CREB-binding protein, bromodomain (CREBBP, Homo sapiens, UniProt Q92793); BROMOscan competition binding; baseline: Kd BRD4(1) over Kd CREBBP).
`NC1CCC(Nc2nccc(-c3cccnc3Oc3ccc(NS(=O)(=O)Cc4ccccc4Cl)c4ccccc34)n2)CC1` (stereo not drawn) gave a selectivity ratio of 0.02 fold (ERN2 RNase domain; RNase activity; baseline: IRE1α IC50 over IRE1β IC50).
The selectivity ratio of `O=C(Nc1ccc(C(=O)Nc2ccc(C(=O)Nc3ccc(S(=O)(=O)O)c4cc(S(=O)(=O)O)cc(S(=O)(=O)O)c34)cc2)cc1)Nc1ccc(C(=O)Nc2ccc(C(=O)Nc3ccc(S(=O)(=O)O)c4cc(S(=O)(=O)O)cc(S(=O)(=O)O)c34)cc2)cc1` is reported as no less than 818 fold (PRSS1; baseline: HNE over PRSS1).
With `CN(C)CCNC(=O)c1cccc2c(NCCCCc3c(N)nc(N)nc3N)c3ccccc3nc12` the selectivity ratio was 33 (RNA F, A–A mismatch; binding, ITC; baseline: Kd RNA A over Kd RNA F).
The selectivity ratio of `O=C(NCc1ccccc1)/C(=C/c1cn(-c2ccccc2)nc1-c1ccccc1)NC(=O)c1ccc(Cl)cc1Cl` is reported as 11.4 (PTGS2; baseline: COX-1 IC50 over COX-2 IC50).
`O=c1[nH]c(=S)[nH]c2c1C(c1cc(/N=N/c3ccc(Br)cc3)ccc1O)c1c([nH]c(=S)[nH]c1=O)N2` has a selectivity ratio of 9.02 (PTGS2; enzyme activity, inhibitor, enzyme immunoassay; baseline: IC50 COX-1 over IC50 COX-2).
With `CCNC(=O)NC(=O)COC(=O)c1cn(-c2ccccc2)nc1-c1ccc(C)cc1C` the selectivity ratio was 12.2 (PTGS2; baseline: COX-1 IC50 over COX-2 IC50).
The selectivity ratio of `O=S(=O)(Cc1ccccc1Cl)Nc1ccc(Oc2ncccc2-c2ccnc(N[C@H]3CCCNC3)n2)cc1F` is reported as 0.12 fold (ERN2 RNase domain; RNase activity; baseline: IRE1α IC50 over IRE1β IC50).
With `O=C(O)C(=O)O.O=C(c1ccc(=O)n(CCF)c1)C1CCN(C2Cc3ccccc3CC2O)CC1` (single isomer, unassigned; (-)) the selectivity ratio was 15800 (sigma-2 receptor, rat; baseline: Ki sigma-2 over Ki VAChT).
`COc1ccc(C(=O)NO)cc1NC(=O)c1ccc(-c2ccccc2)cc1` gave a selectivity ratio of roughly 5 fold (HDAC10 (Homo sapiens, UniProt Q969S8); binding, NanoBRET; baseline: HDAC10 over HDAC6 CD2).
`Cc1cnc(Nc2cc(C)c(C)c(C)c2)nc1Nc1ccc2oc(=O)[nH]c2c1` gave a selectivity ratio of 10 fold (JAK1; physiological ATP; baseline: JAK1 over other kinases).
With `CCn1c(-c2cc(NC(=O)c3cnccn3)n[nH]2)cc2ccccc21` the selectivity ratio was 2 fold (CSNK2A2 (Homo sapiens, UniProt P19784); kinase activity, ADP-Glo; baseline: CK2α' over CK2α).
The selectivity ratio of `NC1CCC(Nc2nccc(-c3cccnc3Oc3ccc(NS(=O)(=O)C4CCC4)c4ccccc34)n2)CC1` (stereo not drawn) is reported as greater than 2000 fold (Serine/threonine-protein kinase/endoribonuclease IRE1, RNase domain (ERN1, Homo sapiens, UniProt O75460); RNase activity; baseline: IRE1β IC50 over IRE1α IC50).
`COc1ccc(/N=N/c2ccc(O)c(C3c4c([nH]c(=S)[nH]c4=O)Nc4[nH]c(=S)[nH]c(=O)c43)c2)cc1` has a selectivity ratio of 2.73 (PTGS2; enzyme activity, inhibitor, enzyme immunoassay; baseline: IC50 COX-1 over IC50 COX-2).
`NC1CCC(Nc2nccc(-c3cccnc3Oc3cccc4c(NS(=O)(=O)C5CCC5)cccc34)n2)CC1` (stereo not drawn) gave a selectivity ratio of 0.003 fold (ERN2 RNase domain; RNase activity; baseline: IRE1α IC50 over IRE1β IC50).
`Cc1ccc(C[C@H](NC(=O)CN2CCCc3cc4cc(C(=O)NCCNC(=O)CCCC[C@@H]5SC[C@@H]6NC(=O)N[C@@H]65)c(=O)oc4cc32)C(=O)NC/C=C/S(=O)(=O)c2ccccc2)cc1` gave a selectivity ratio of 2.7 (CTSL; baseline: rhodesain over cathepsin L kinact/Ki).
For `COc1ccc2c(c1)C(=C1Nc3ccccc3C1=NOCC(O)CO)C(=O)N2` (stereo not drawn), the selectivity ratio was 15 fold (TYK2 (Homo sapiens, UniProt P29597); kinase activity, inhibitor; baseline: IC50 TYK2 over IC50 Src).
The selectivity ratio of `NC1CCC(Nc2nccc(-c3cccnc3Oc3ccc(NS(=O)(=O)c4ccccc4Cl)cc3F)n2)CC1` (stereo not drawn) is reported as 60 (ERN2 RNase domain; RNase activity; baseline: IRE1α IC50 over IRE1β IC50).
For `CC[C@H](C)[C@H](NC(=O)[C@@H]1CSSC[C@H](NC(=O)[C@H](Cc2ccc(O)cc2)NC(=O)CN)C(=O)N[C@@H](CO)C(=O)N[C@@H](CCCNC(=N)N)C(=O)N[C@@H](CO)C(=O)N[C@@H](Cc2ccc(O)cc2)C(=O)N2CCC[C@H]2C(=O)N2CCC[C@H]2C(=O)N[C@@H](C(C)C)C(=O)N1)C(=O)N1CCC[C@H]1C(=O)N[C@@H](CC(=O)O)C(=O)O`, the selectivity ratio was 0.4 (PRSS1; baseline: Ki trypsin over Ki MASP-2).
With `COc1ccc(/N=N/c2ccc(O)c(C3c4c([nH]c(=S)[nH]c4=O)Nc4[nH]c(=S)[nH]c(=O)c43)c2)cc1OC` the selectivity ratio was 5.97 (PTGS2; enzyme activity, inhibitor, enzyme immunoassay; baseline: IC50 COX-1 over IC50 COX-2).
With `CC[C@H](C)[C@H](NC(=O)[C@@H]1CSSC[C@H](NC(=O)[C@H](Cc2ccc(O)cc2)NC(=O)CNC(C)=O)C(=O)N[C@@H](CO)C(=O)N[C@@H](CCCNC(=N)N)C(=O)N[C@@H](CO)C(=O)N[C@@H](Cc2ccc(O)cc2)C(=O)N2CCC[C@H]2C(=O)N2CCC[C@H]2C(=O)N[C@@H](C(C)C)C(=O)N1)C(=O)N1CCC[C@H]1C(=O)N[C@@H](CC(=O)O)C(=O)O` the selectivity ratio was 0.4 (PRSS1; baseline: Ki trypsin over Ki MASP-2).
`Cn1c(=O)c(=O)n(C)c2cc(S(=O)(=O)NNC(=S)Nc3ccccc3)ccc21` gave a selectivity ratio of greater than 1000 (Dipeptidyl peptidase 8; inhibitor; together with: Gly-Pro-AMC; baseline: IC50 DPP8/9 over DPP4).
